Experimental data of several laboratories.
Compare with care: the assays were run in different laboratories.

C[C@@H](c1nc(-c2ccc(C#N)cc2)cs1)[C@](O)(Cn1cncn1)c1cc(F)ccc1F
adverse event Constipation (healthy humans; oral, dose not given, with: ketoconazole): 8.3%

CC(C)N(CCCCOCC(=O)NS(C)(=O)=O)c1cnc(-c2ccccc2)c(-c2ccccc2)n1
adverse event incidence (measured: Presyncope; healthy male human; oral, 200 µg): 4.5%

O=C(COc1ccc(Cl)cc1)NC12CC(c3nnc([C@H]4C[C@@H](OC(F)(F)F)C4)o3)(C1)C2
adverse event incidence (measured: post lumbar puncture syndrome; human; 200 mg once daily, 28 (unit not given)): 22.2%

O=C(Nc1cnccc1Cl)N1CCN(Cc2ccc3c(c2)OC(F)(F)O3)CC1
adverse event incidence (measured: Ecchymosis; human healthy young men; 10 mg, multiple dose): 0%

NC(=O)N1c2ccccc2C=Cc2ccccc21
adverse events incidence (measured: eye disorders (SOC); human male; oral, dose not given, CTCAE on-treatment AEs): 13%

CO[C@H]1/C=C/O[C@@]2(C)Oc3c(C)c(O)c4c(O)c(c(/C=N/N5CCN(C)CC5)c(O)c4c3C2=O)NC(=O)/C(C)=C\C=C\[C@H](C)[C@H](O)[C@@H](C)[C@@H](O)[C@@H](C)[C@H](OC(C)=O)[C@@H]1C
adverse event incidence (measured: skin subcutaneous tissue disorders; healthy human participants; oral, 600 mg, with: gepotidacin 1500 mg): 6%

C=CC(=O)NC1CCN(c2ncc3ncnc(Nc4ccc(Oc5ccc6c(c5)ncn6C)c(C)c4)c3n2)CC1
adverse events incidence (measured: initial insomnia; human male; oral, dose not given, CTCAE on-treatment AEs): 0%

C[C@@H](Oc1ccc(S(C)(=O)=O)cc1C(=O)N1C[C@@H]2C[C@]2(c2cc(C(F)(F)F)on2)C1)C(F)(F)F
adverse events (human; oral, 25 mg): 16.7%

CNC(=O)c1ccc(-c2cnc3ncc(Cc4ccc5ncccc5c4)n3n2)cc1F
adverse events leading to treatment discontinuation (human, Japanese cohort; oral, 400 mg, organising pneumonia, any grade): 1 % patients

CO[C@H]1/C=C/O[C@@]2(C)Oc3c(C)c(O)c4c(O)c(c(/C=N/N5CCN(C)CC5)c(O)c4c3C2=O)NC(=O)/C(C)=C\C=C\[C@H](C)[C@H](O)[C@@H](C)[C@@H](O)[C@@H](C)[C@H](OC(C)=O)[C@@H]1C
adverse event Fatigue (healthy humans; oral, dose not given): 8.3%

C[C@@H](N)c1cc(Cl)ccc1Cn1c(=S)[nH]c(=O)c2[nH]ccc21
adverse events causing discontinuation (human; oral, 2.5 mg single dose): 0%

Excerpt of the above:
CC(C)N(CCCCOCC(=O)NS(C)(=O)=O)c1cnc(-c2ccccc2)c(-c2ccccc2)n1
adverse event incidence (measured: Presyncope; healthy male human; oral, 200 µg): 4.5%
